Measurements from different studies.
Each line is one published result; not all experiments were run side by side. ± gives the spread as reported.
Beta-lactamase CTX-M-27: Beta-lactamase CTX-M-27 (Escherichia coli, UniProt Q840M4)
UniProt Q9Y237, sequence (whole entry, looked up): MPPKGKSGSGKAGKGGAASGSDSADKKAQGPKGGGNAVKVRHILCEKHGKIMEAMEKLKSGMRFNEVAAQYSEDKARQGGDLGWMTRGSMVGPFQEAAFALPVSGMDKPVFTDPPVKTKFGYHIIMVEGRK
UniProt Q9WYW0, sequence (whole entry, looked up): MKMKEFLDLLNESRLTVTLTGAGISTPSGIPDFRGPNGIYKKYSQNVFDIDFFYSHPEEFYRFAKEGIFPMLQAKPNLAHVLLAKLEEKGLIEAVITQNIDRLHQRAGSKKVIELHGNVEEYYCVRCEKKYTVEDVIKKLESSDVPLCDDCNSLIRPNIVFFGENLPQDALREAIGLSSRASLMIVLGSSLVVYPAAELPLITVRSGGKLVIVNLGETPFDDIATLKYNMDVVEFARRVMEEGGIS
UniProt O95147, sequence (whole entry, unmodified, looked up): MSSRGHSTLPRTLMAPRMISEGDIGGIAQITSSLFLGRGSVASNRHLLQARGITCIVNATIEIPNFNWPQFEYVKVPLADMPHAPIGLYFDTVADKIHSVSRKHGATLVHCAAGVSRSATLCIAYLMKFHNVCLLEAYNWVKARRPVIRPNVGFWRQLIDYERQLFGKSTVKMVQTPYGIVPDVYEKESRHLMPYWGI
UniProt P0DMV8, sequence (whole entry, looked up): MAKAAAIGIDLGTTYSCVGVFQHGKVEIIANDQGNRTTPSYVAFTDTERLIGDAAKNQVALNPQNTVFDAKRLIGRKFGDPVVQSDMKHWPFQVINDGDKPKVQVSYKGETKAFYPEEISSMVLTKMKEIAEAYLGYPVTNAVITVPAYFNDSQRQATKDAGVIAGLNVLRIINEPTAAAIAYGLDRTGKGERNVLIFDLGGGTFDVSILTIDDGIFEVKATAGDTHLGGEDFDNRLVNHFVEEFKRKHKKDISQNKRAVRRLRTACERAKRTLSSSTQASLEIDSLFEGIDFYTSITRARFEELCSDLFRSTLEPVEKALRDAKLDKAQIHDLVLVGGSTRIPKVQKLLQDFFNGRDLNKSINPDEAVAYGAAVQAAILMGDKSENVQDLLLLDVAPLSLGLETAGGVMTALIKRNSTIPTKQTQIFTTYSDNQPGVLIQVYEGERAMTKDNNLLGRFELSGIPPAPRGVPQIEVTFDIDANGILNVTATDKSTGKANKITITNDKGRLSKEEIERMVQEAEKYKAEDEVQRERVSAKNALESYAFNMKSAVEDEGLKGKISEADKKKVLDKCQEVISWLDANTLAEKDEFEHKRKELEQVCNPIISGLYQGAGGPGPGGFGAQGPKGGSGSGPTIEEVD
UniProt O66465, sequence (whole entry, unmodified, looked up): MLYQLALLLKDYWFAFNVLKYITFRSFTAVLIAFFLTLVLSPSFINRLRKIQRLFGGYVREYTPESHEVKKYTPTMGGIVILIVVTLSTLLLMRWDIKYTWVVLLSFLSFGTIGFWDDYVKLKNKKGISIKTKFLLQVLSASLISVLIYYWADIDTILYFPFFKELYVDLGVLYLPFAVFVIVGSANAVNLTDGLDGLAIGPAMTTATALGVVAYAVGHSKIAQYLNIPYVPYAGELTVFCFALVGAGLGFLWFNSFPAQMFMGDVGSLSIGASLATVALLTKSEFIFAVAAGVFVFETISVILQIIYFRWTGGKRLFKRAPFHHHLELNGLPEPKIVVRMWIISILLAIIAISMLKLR
UniProt Q8NFD5, sequence (whole entry, looked up): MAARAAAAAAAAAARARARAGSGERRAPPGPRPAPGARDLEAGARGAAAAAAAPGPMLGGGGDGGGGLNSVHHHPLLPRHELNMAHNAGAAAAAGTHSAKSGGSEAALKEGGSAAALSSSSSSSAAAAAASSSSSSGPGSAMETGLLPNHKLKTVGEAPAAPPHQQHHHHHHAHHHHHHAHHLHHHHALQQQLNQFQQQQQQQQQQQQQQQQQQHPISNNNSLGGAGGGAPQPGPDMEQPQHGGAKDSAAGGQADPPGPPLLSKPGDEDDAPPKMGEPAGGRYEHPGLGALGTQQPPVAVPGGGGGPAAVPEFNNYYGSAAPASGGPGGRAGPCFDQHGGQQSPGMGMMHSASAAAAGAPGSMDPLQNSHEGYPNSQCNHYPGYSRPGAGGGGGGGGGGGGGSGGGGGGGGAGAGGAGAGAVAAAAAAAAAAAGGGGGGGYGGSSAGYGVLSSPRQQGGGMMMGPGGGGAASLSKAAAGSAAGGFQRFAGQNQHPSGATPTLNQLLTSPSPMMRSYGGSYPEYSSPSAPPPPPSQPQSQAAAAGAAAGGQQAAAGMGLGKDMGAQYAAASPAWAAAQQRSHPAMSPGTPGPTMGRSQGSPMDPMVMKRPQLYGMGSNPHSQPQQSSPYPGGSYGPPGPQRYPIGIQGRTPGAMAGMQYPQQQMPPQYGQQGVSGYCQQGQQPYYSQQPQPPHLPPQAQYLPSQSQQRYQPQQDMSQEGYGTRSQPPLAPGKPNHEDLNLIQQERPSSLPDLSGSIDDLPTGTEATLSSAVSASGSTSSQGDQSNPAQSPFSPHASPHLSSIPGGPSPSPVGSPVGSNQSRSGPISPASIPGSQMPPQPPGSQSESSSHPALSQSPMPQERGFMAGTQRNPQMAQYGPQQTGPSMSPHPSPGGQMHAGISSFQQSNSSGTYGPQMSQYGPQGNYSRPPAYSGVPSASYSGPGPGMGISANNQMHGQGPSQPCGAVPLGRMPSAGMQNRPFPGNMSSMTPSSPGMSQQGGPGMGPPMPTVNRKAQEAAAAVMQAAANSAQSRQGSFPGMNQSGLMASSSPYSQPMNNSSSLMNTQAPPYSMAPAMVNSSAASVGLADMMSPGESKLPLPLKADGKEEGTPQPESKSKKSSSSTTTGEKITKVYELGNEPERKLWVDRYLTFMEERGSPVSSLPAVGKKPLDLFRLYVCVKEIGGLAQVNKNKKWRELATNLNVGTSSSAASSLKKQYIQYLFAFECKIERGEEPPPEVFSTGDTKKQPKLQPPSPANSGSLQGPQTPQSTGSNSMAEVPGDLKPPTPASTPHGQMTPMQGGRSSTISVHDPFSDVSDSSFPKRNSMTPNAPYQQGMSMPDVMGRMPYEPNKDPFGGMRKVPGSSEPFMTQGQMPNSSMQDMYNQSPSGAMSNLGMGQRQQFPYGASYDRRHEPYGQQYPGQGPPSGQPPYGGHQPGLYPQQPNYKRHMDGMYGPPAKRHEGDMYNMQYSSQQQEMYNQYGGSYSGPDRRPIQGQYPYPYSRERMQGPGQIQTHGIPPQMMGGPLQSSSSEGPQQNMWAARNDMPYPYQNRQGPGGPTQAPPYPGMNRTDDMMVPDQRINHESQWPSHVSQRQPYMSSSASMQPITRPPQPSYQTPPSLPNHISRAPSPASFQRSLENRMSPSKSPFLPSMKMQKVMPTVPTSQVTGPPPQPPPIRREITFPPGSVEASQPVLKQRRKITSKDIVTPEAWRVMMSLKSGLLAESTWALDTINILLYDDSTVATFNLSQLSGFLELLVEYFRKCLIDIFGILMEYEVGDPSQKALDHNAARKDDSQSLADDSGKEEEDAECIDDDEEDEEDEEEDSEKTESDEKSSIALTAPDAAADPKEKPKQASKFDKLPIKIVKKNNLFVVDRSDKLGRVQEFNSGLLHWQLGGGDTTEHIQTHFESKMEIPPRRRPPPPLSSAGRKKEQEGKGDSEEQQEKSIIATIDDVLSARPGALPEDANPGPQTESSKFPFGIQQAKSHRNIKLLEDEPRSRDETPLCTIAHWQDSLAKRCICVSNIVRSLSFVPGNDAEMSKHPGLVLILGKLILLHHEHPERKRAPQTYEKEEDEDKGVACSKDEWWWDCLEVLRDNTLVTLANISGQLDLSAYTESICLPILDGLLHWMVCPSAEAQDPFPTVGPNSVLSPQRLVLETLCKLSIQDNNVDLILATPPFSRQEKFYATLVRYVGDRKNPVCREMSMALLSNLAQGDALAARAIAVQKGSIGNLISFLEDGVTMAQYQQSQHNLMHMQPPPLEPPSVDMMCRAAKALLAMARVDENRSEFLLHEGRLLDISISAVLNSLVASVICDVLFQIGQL
UniProt Q99828, sequence (whole entry, looked up): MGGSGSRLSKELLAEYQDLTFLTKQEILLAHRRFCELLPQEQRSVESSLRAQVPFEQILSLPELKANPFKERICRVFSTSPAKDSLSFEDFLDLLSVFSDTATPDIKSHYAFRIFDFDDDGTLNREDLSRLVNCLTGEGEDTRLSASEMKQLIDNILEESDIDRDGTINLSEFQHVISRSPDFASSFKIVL
UniProt Q96P16, sequence (whole entry, looked up): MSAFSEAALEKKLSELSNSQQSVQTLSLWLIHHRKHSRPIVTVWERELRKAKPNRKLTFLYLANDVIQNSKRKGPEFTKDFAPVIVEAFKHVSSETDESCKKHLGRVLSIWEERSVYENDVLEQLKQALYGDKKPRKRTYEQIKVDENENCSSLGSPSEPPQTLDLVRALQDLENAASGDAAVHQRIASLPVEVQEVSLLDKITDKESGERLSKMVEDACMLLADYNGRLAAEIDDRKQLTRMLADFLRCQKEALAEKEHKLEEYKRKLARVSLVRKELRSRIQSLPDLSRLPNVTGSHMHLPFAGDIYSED

SMILES | target | test | test system | conditions | Kd
C[C@H](N)C(=O)N[C@@H](CCCNC(=N)N)C(=O)N[C@H](C(=O)N[C@@H](CCCC[N+](C)(C)C)C(=O)N[C@@H](CCC(N)=O)C(=O)N[C@H](C(=O)N[C@@H](C)C(=O)N[C@@H](CCCNC(=N)N)C(=O)N[C@@H](CCCCN)C(=O)N[C@@H](CO)C(=O)N[C@H](C(=O)NCC(=O)NCC(=O)N[C@@H](CCCCN)C(=O)N[C@@H](C)C(=O)N[C@@H](CCCCNC(=O)c1ccc2c(c1)C(=O)OC21c2ccc(O)cc2Oc2cc(O)ccc21)C(N)=O)[C@@H](C)O)[C@@H](C)O)[C@@H](C)O | Inhibitor of growth protein 1, PHD finger (ING1, Homo sapiens, UniProt Q9UK53) | binding, fluorescence polarization |  | pH 7.5, 25 °C, together with: fluorescein-labelled histone H3K4 peptide | 16.2 ± 4.4 µM
CC(C)C[C@@H]1NC(=O)CN(C)C(=O)[C@H](Cc2c[nH]c3ccccc23)NC(=O)[C@H](CCC(=O)O)NC(=O)[C@H](Cc2ccccc2)N(C)C(=O)[C@H](Cc2ccccc2)NC(=O)CSC[C@@H](C(N)=O)NC(=O)[C@H](CCCCN)NC(=O)[C@H](C(C)C)NC(=O)[C@H](Cc2ccc(O)cc2)NC(=O)[C@H](Cc2ccc(O)cc2)NC(=O)[C@H](C(C)C)NC(=O)[C@H](Cc2ccccc2)N(C)C(=O)[C@H](CCCNC(=N)N)NC1=O | AT-rich interactive domain-containing protein 1B (ARID1B, Homo sapiens, UniProt Q8NFD5) | SPR |  | 278 K | 0.0008 µM
COC(=O)[C@H](Cc1ccccc1)NC(=O)[C@@H]1CCCN1C(=O)[C@H](CCC(=O)O)NC(=O)C(C)NC(C)=O (stereo in doubt) | Peptidyl-prolyl cis-trans isomerase NIMA-interacting 4 (Homo sapiens, UniProt Q9Y237) | binding, label-free Epic | PBS | pH 7.4, 0.5% DMSO | 18.6 ± 11.5 µM
CC(C)C[C@H](NC(=O)[C@H](Cc1ccc(OP(=O)(O)O)cc1)NC(=O)[C@H](CCC(=O)O)NC(=O)[C@H](CC(=O)O)NC(=O)[C@H](C)NC(=O)[C@H](CC(=O)O)NC(=O)[C@@H](NC(=O)CCCCCNC(=O)CCCC[C@@H]1SC[C@@H]2NC(=O)N[C@@H]21)C(C)C)C(N)=O | DUSP14 (Homo sapiens, UniProt O95147, C111S) | binding |  |  | 1.4 ± 1.3 µM
CC[C@H](C)[C@@H]1NC(=O)[C@@H](NC(=O)[C@H](C)N)CSCCC(=O)N2CN3CN(C2)C(=O)CCSC[C@H](NC(=O)[C@H](Cc2ccc(O)cc2)NC(=O)[C@H](CCC(N)=O)NC(=O)CNC(=O)[C@H](CCC(=O)O)NC(=O)[C@H](CCC(=O)O)NC1=O)C(=O)N[C@@H](Cc1ccc(O)cc1)C(=O)N[C@@H](CCCNC(=N)N)C(=O)N[C@@H](CC(=O)O)C(=O)N[C@@H](CCSC)C(=O)N[C@@H](Cc1ccc(O)cc1)C(=O)N[C@@H](CCSC)C(=O)N[C@H](C(=O)N[C@@H](C)C(N)=O)CSCCC3=O | Tumor necrosis factor receptor superfamily member 9 (Homo sapiens, UniProt Q07011) | binding, SPR |  |  | 0.795 µM
CC[C@H](C)[C@H]1C(=O)O[C@H](C(C)C)C(=O)N(C)[C@@H]([C@@H](C)CC)C(=O)O[C@H](C(C)C)C(=O)N(C)[C@@H]([C@@H](C)CC)C(=O)O[C@H](C(C)C)C(=O)N1C | HSPA1A (Homo sapiens, UniProt P0DMV8) | binding, SPR |  |  | ~246 µM
CSCC[C@H](NC(=O)[C@H](C)NC(=O)[C@H](CCCNC(=N)N)NC(=O)[C@H](Cc1ccc(O)cc1)NC(=O)[C@H](Cc1c[nH]c2ccccc12)NC(=O)[C@H](Cc1ccccc1)NC(=O)[C@H](CO)NC(=O)CNC(=O)CNC(=O)[C@H](CC(=O)O)NC(=O)[C@@H](N)CCC(=O)O)C(=O)N[C@@H](CCCCN)C(=O)N[C@@H](C)C(=O)N[C@@H](CC(C)C)C(=O)N[C@@H](Cc1ccc(O)cc1)C(=O)NCC(N)=O | CIB1 (Homo sapiens, UniProt Q99828) | peptide binding, inhibitor, TR-FRET competition |  | pH 7.5, 1 mM calcium, together with: 30 nM Alexa647-labelled peptide | 0.016 ± 0.007 µM
C[n+]1cn([C@@H]2O[C@H](COP(=O)([S-])OP(=O)(O)OP(=O)(O)OP(=O)([S-])OC[C@H]3O[C@@H](n4c[n+](C)c5c(O)nc(N)nc54)[C@H](O)[C@@H]3O)[C@@H](O)[C@H]2O)c2nc(N)nc(O)c21 (some centres unmarked) | mRNA decapping complex subunit 2, regulatory domain (dcp2, Schizosaccharomyces pombe, UniProt O13828) | binding to Dcp2 regulatory domain |  |  | ~800 µM
O=C(Nc1cccc(-c2nn[nH]n2)c1)c1cc(-c2cc[nH]c2)cc(C(F)(F)F)c1 | Beta-lactamase CTX-M-27 | surface plasmon resonance |  | 25 °C | 2.28 ± 0.06 µM
CC(=O)NCCCC[C@H](NC(=O)[C@H](CCCCN)NC(=O)[C@H](Cc1c[nH]cn1)NC(=O)[C@H](CCCNC(=N)N)NC(=O)[C@H](CO)NC(=O)[C@@H](NC(=O)[C@H](CO)NC(=O)[C@H](CCC(N)=O)NC(=O)CNC(=O)[C@H](CCCCN)NC(=O)[C@@H](N)CCCCN)[C@@H](C)O)C(=O)N[C@@H](CC(C)C)C(=O)N[C@@H](CCCNC(=N)N)C(=O)N[C@@H](Cc1ccccc1)C(=O)N[C@@H](CCCCN)C(=O)N[C@H](C(=O)N[C@@H](CCC(=O)O)C(=O)NCC(=O)O)[C@@H](C)O | NAD-dependent protein deacetylase (cobB, Thermotoga maritima, UniProt Q9WYW0) | acetylated p53 peptide binding, intrinsic tyrosine fluorescence |  | pH 9.2, target 0.4 µM | 28.2 µM
O=C(O)c1cc(Br)c[nH]1 | 4-diphosphocytidyl-2-C-methyl-D-erythritol kinase (ispE, Klebsiella pneumoniae subsp. pneumoniae, UniProt A6TAP2) | binding, microscale thermophoresis | Klebsiella pneumoniae |  | 213 µM
CCOC(=O)[C@@H]1CC[C@@H]2C=C[C@H]3CCN(C(=O)[C@@H]4CC[C@H]5C=C[C@]6(CCCN6C(=O)[C@H](Cc6ccccc6Cl)NC(=O)[C@H](CCC(=O)O)NC(=O)[C@H](Cc6ccccc6)NC(=O)[C@H](CO)NC(C)=O)C(=O)N54)[C@@H]3C(=O)N21 | Protein enabled homolog (ENAH, UniProt Q8N8S7) | binding, fluorescence |  | pH 7.3 | 2.9 µM
N=C(N)NCCC[C@@H]1NC(=O)[C@H](Cc2csc3ccccc23)NC(=O)[C@@H](Cc2ccccc2)NC(=O)[C@H](Cc2ccccc2)NC(=O)[C@H](CCC(=O)NCCOCCOCC(=O)N[C@@H](CCCCNC(=O)c2ccc3c(c2)C(=O)OC32c3ccc4cc(O)ccc4c3Oc3c2ccc2cc(O)ccc32)C(N)=O)NC(=O)[C@@H](CCCNC(=N)N)NC(=O)[C@H](CCCNC(=N)N)NC(=O)[C@@H](CCCNC(=N)N)NC1=O | fetal bovine serum proteins | binding, fluorescence polarization |  | 1 h | 1.2 ± 0.4 µM
C[C@@H](O)[C@H](NC(=O)[C@@H]1CCCN1C(=O)[C@H](CO)NC(=O)[C@H](Cc1ccc(O)cc1)NC(=O)[C@H](CO)NC(=O)[C@@H]1CCCN1C(=O)[C@H](COP(=O)(O)O)NC(=O)[C@@H](NC(=O)[C@@H]1CCCN1C(=O)[C@H](CO)NC(=O)[C@H](Cc1ccc(O)cc1)NC(=O)[C@H](CO)NC(=O)[C@@H]1CCCN1C(=O)[C@@H](N)CO)[C@@H](C)O)C(=O)N[C@@H](COP(=O)(O)O)C(=O)N1CCC[C@H]1C(=O)N[C@@H](CO)C(=O)N[C@@H](Cc1ccc(O)cc1)C(=O)N[C@@H](CO)C(=O)O | Regulation of nuclear pre-mRNA domain-containing protein 1A, CID domain (RPRD1A, Homo sapiens, UniProt Q96P16) | isothermal titration calorimetry |  | pH 7.5, 25 °C | > 1000 µM
O=C(CCCN1CCC2(CC1)C(=O)NCN2c1ccccc1)N(Cc1ccsc1)c1ccccc1 | PDE6D (Homo sapiens, UniProt O43924) | binding |  |  | 1.24 ± 0.106 µM
C[C@H](NC(=O)[C@@H](N)Cc1ccc(O)cc1)C(=O)NCC(=O)N[C@@H](COP(=O)(O)O)C(=O)N[C@H](C(=O)N[C@@H](CC(=O)O)C(=O)N[C@@H](CCC(=O)O)C(=O)N[C@@H](CC(N)=O)C(=O)N[C@H](C(=O)N[C@@H](CC(=O)O)C(=O)N[C@@H](CO)C(=O)N[C@@H](CCC(=O)O)C(=O)O)[C@@H](C)O)[C@@H](C)OP(=O)(O)O | Bifunctional polynucleotide phosphatase/kinase, FHA domain (Homo sapiens, UniProt Q96T60) | binding, ITC |  | pH 7.5, 10 °C, PNK FHA domain | 1.23 µM
CC(C)CC(NC(=O)C(NC(=O)NC(C(=O)O)C(C)C)C1CCNC(=N)N1)C(=O)NCCCNC(C(=O)O)C(OC1OC(CN)C(O)C1O)C1OC(n2ccc(=O)[nH]c2=O)C(O)C1O (centres unmarked) | mraY (Aquifex aeolicus, UniProt O66465, N255A) | binding, ITC |  |  | 0.0297 µM
N=C(N)NCCC[C@H](NC(=O)[C@H](Cc1ccccc1)NC(=O)[C@@H]1CCCN1C(=O)[C@H](CO)NC(=O)[C@H](Cc1ccccc1)NC(=O)CNC(=O)[C@@H]1CCCN1C(=O)[C@@H]1CCCN1C(=O)[C@@H](N)CCCNC(=N)N)C(=O)N[C@@H](CCCCNS(=O)(=O)c1ccc(C2=c3cc4c5c(c3Oc3c2cc2c6c3CCCN6CCC2)CCC[N+]=5CCC4)c(S(=O)(=O)[O-])c1)C(=O)O | Oligopeptide-binding protein OppA (oppA, Lactococcus lactis subsp. lactis, UniProt Q07741) | binding, fluorescence anisotropy |  | pH 7, 37 °C, together with: dye-labelled peptide | 22.9 ± 0.5 µM
CC(C)P(=[Se])(NP(=[Se])(C(C)C)C(C)C)C(C)C | Alpha-amylase (Bacillus subtilis, UniProt P00691) | fluorescence quenching |  | 298 K | 6250 µM
O=C(Nc1cccc(-c2nn[nH]n2)c1)c1cc(-n2cccn2)cc(C(F)(F)F)c1 | Beta-lactamase CTX-M-27 | surface plasmon resonance |  | 25 °C | 2.19 ± 0.06 µM

Excerpt of the above:
SMILES | target | test | test system | conditions | Kd
N=C(N)NCCC[C@@H]1NC(=O)[C@H](Cc2csc3ccccc23)NC(=O)[C@@H](Cc2ccccc2)NC(=O)[C@H](Cc2ccccc2)NC(=O)[C@H](CCC(=O)NCCOCCOCC(=O)N[C@@H](CCCCNC(=O)c2ccc3c(c2)C(=O)OC32c3ccc4cc(O)ccc4c3Oc3c2ccc2cc(O)ccc32)C(N)=O)NC(=O)[C@@H](CCCNC(=N)N)NC(=O)[C@H](CCCNC(=N)N)NC(=O)[C@@H](CCCNC(=N)N)NC1=O | fetal bovine serum proteins | binding, fluorescence polarization |  | 1 h | 1.2 ± 0.4 µM
CCOC(=O)[C@@H]1CC[C@@H]2C=C[C@H]3CCN(C(=O)[C@@H]4CC[C@H]5C=C[C@]6(CCCN6C(=O)[C@H](Cc6ccccc6Cl)NC(=O)[C@H](CCC(=O)O)NC(=O)[C@H](Cc6ccccc6)NC(=O)[C@H](CO)NC(C)=O)C(=O)N54)[C@@H]3C(=O)N21 | Protein enabled homolog (ENAH, UniProt Q8N8S7) | binding, fluorescence |  | pH 7.3 | 2.9 µM
O=C(O)c1cc(Br)c[nH]1 | 4-diphosphocytidyl-2-C-methyl-D-erythritol kinase (ispE, Klebsiella pneumoniae subsp. pneumoniae, UniProt A6TAP2) | binding, microscale thermophoresis | Klebsiella pneumoniae |  | 213 µM
